Published values gathered from unrelated publications.
Numbered parts are unrelated; each lists some results of a single study.
Chain of UniProt P46734 (whole entry, looked up): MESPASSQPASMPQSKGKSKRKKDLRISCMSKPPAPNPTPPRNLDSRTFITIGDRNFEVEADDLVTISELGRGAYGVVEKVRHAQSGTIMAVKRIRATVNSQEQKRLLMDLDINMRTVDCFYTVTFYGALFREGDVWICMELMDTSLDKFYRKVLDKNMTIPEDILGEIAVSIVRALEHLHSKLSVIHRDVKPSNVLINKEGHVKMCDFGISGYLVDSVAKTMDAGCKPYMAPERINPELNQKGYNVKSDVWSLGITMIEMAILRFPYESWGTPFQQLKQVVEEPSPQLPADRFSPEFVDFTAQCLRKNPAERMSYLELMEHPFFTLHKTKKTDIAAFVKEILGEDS
Chain of UniProt P37023 (whole entry, looked up): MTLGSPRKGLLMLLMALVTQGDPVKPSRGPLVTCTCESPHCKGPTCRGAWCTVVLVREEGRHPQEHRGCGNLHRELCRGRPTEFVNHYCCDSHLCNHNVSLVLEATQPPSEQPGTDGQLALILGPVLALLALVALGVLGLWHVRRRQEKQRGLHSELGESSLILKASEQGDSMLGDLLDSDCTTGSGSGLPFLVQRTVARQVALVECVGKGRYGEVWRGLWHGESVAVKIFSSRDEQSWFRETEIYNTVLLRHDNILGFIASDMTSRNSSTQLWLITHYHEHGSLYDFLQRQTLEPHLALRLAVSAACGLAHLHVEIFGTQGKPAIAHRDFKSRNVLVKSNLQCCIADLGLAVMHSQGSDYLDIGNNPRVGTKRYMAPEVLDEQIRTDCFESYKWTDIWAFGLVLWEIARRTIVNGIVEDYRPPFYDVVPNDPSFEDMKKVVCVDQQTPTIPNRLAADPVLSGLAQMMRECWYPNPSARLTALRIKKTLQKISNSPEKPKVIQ
Chain of UniProt Q61831 (whole entry, looked up): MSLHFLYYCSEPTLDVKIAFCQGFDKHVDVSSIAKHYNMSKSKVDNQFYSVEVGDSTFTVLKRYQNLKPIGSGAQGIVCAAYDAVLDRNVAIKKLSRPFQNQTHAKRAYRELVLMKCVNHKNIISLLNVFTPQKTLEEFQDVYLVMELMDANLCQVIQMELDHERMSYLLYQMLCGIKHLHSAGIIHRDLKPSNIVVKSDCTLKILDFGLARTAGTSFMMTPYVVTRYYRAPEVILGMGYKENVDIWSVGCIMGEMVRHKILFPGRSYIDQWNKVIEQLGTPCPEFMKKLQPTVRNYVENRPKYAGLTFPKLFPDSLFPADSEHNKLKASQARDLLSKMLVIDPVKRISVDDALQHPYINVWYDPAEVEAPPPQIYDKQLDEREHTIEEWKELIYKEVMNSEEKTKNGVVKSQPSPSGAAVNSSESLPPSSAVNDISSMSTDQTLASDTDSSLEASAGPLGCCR
Chain of UniProt O75676 (whole entry, looked up): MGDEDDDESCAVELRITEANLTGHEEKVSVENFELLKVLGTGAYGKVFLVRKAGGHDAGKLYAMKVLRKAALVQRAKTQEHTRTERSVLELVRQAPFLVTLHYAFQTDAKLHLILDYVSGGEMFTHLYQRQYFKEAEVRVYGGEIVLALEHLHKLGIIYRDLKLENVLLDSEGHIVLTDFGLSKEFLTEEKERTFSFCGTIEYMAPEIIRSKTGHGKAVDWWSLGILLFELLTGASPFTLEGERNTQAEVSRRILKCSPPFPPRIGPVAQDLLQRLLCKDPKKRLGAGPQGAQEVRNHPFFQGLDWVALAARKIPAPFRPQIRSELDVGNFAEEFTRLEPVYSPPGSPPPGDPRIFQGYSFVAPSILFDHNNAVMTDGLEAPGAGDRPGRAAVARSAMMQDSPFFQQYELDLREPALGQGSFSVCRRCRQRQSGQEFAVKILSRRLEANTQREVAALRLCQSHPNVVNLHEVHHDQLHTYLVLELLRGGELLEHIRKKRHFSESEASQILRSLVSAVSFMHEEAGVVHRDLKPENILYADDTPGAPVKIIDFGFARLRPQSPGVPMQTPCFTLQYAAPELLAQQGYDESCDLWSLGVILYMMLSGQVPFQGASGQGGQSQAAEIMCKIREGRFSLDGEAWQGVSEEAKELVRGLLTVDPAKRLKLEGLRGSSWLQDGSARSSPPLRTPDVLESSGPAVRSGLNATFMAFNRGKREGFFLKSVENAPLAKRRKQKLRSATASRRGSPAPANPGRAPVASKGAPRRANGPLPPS
Chain of UniProt Q15418 (whole entry, looked up): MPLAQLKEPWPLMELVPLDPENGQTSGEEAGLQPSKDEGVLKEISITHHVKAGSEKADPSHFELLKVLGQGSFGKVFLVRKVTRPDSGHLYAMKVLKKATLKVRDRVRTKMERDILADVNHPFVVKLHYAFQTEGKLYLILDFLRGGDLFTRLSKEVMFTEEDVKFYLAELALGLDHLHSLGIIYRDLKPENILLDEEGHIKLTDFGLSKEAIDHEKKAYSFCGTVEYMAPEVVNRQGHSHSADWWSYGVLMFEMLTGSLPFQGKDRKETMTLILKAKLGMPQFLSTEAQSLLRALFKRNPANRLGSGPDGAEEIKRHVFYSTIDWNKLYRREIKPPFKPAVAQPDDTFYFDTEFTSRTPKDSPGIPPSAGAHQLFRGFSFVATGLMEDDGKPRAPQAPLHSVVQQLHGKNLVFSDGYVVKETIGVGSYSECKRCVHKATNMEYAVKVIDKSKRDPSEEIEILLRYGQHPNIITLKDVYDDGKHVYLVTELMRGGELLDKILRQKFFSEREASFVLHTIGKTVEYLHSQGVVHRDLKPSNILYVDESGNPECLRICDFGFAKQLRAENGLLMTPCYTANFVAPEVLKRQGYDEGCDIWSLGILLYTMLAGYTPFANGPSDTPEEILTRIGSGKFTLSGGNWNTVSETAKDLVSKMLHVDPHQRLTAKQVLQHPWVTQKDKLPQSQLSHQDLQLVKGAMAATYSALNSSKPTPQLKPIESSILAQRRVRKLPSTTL
Chain of UniProt P42336 (whole entry, unmodified, looked up): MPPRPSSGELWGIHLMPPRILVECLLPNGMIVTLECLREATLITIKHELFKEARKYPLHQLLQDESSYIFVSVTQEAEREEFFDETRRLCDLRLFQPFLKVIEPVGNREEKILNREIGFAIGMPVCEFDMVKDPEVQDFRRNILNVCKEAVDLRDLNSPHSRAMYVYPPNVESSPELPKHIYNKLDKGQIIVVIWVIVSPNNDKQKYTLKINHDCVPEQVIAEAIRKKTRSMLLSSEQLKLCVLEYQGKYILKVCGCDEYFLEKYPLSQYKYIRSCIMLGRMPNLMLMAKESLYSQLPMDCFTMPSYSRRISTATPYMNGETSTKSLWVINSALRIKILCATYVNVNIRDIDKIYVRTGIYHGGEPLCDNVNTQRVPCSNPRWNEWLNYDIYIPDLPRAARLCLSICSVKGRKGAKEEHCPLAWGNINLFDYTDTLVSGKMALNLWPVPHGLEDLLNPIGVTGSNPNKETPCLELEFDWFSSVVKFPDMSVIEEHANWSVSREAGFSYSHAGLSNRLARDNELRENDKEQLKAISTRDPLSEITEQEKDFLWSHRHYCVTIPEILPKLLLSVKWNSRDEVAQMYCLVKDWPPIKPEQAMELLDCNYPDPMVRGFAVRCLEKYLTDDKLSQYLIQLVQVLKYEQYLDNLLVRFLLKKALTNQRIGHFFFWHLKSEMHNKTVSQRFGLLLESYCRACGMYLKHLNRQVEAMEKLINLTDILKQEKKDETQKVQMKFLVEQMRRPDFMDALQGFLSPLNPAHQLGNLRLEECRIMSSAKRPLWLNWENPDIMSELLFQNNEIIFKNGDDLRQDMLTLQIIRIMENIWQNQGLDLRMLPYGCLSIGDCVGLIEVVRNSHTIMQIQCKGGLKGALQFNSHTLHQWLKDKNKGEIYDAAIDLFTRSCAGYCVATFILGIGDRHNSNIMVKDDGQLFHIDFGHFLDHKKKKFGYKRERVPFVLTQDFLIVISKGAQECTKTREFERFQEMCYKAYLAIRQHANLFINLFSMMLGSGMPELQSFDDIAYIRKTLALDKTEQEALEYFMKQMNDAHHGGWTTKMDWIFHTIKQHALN
Chain of UniProt P31749 (whole entry, looked up): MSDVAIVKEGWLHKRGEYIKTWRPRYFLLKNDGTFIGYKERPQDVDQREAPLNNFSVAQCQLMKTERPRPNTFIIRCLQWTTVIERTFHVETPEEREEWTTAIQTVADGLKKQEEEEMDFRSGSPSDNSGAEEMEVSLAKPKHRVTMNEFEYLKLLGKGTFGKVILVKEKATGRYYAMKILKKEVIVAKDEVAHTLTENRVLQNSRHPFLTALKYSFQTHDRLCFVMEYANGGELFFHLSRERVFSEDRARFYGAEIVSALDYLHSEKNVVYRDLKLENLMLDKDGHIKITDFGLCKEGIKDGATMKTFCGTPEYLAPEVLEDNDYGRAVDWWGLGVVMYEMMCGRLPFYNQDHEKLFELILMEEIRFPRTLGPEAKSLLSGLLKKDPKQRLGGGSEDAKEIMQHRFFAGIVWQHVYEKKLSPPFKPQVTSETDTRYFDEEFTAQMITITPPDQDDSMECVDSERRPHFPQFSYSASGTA

Series 1
SMILES: COc1cc(C(=O)N2CCC(N3CCN(C)CC3)CC2)ccc1Nc1ncc2c(n1)N(C)c1ccccc1C(=O)N2C
tested on	test	system	conditions	inhibition [%]
CaMKK2 (mouse)	probe labelling, KiNativ, measured: Lys1 site peptide	brain tissue lysate (mouse)	0.1 µM, with: ADP acyl-phosphate probe	13.2
ATR (mouse)	probe labelling, KiNativ, measured: FYIMMCkPK peptide, ATP site	brain tissue lysate (mouse)	0.1 µM, with: ATP acyl-phosphate probe	16.8
human PBMC	probe labeling, inhibitor, KiNativ profiling, measured: DVkPDNMLLDK	cell lysate	concentration not given, LYS2 site, with: ATP acyl-phosphate probe 1 µM	9.5
IRAK3 (human)	probe labelling, KiNativ ADP probe	human PBMC lysate	concentration not given, LYS1 labelled site	-12.1
RSKL1 domain 1 (mouse)	probe labelling, inhibitor, KiNativ ActivX ATP probe	mouse brain lysate	0.1 µM	-8
human PBMC	probe labeling, inhibitor, KiNativ profiling, measured: DTGHIYAMkILR	cell lysate	1 µM, LYS1 site, with: ATP acyl-phosphate probe	10.6
Mitogen-activated protein kinase 10 (Mapk10, Mus musculus, UniProt Q61831)			0.1 µM	-30.9

Series 2 — SMILES: Cc1nc(-c2ccccc2)c(-c2ccncc2)o1; read-out: enzyme activity; mode: inhibitor; technique: radiometric
target	IC50 [µM]
CSNK1D (Homo sapiens, UniProt P48730)	0.864
MAPK11 (Homo sapiens, UniProt Q15759)	> 30
MAPK12 (Homo sapiens, UniProt P53778)	> 30

Series 3 — read-out: enzyme activity; mode: inhibitor; concentration: 10 µM
Target: Calcium/calmodulin-dependent protein kinase type II subunit alpha (CAMK2A, Homo sapiens, UniProt Q9UQM7)
Chain of UniProt Q9UQM7 (whole entry, looked up): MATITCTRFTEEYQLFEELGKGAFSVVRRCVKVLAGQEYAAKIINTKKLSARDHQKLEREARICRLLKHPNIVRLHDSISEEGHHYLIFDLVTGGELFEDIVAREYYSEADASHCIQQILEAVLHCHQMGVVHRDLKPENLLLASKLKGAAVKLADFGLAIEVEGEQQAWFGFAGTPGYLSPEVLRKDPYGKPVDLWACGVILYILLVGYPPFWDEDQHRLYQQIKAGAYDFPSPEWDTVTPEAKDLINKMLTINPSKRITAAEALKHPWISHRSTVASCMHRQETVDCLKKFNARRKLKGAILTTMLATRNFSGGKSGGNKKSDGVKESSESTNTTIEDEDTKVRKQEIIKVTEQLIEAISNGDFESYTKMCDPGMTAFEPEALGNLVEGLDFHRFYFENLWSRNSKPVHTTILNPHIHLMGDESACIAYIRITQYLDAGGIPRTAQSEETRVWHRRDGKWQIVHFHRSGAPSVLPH
Structure (SMILES)	inhibition
C=CC[N+]1([C@H]2C[C@H]3[C@@H]4CC[C@H]5C[C@H](O)[C@@H](N6CCOCC6)C[C@]5(C)[C@H]4CC[C@]3(C)[C@H]2OC(C)=O)CCCC1	7%
COc1cc(O[C@@H]2O[C@H](CO[C@@H]3O[C@H](CO)[C@@H](O)[C@H](O)[C@H]3O)[C@@H](O)[C@H](O)[C@H]2O)c2c(O)c3c(=O)oc(C)cc3cc2c1	-10%
CNC1(C)C2CCC(C2)C1(C)C (stereo not shown)	-9%
c1ccc2c(-c3nccs3)c[nH]c2c1	23%

Series 4 — read-out: cell-free assay; technique: competition with immobilised ligand; concentration: 1 µM
SMILES: CCC(=O)N[C@H]1CC[C@@H](C(=O)N(C)c2ccc(-c3nc4ccccc4o3)cc2)C1
target	remaining binding [%]
ACVRL1 (Homo sapiens, UniProt P37023)	77
PRKAA1 (Homo sapiens, UniProt Q13131)	99
TEK (Homo sapiens, UniProt Q02763)	85
ACVR1 (Homo sapiens, UniProt Q04771)	85
PIK3CA (Homo sapiens, UniProt P42336, E542K)	77
AKT1 (Homo sapiens, UniProt P31749)	97
FLT4 (Homo sapiens, UniProt P35916)	97
Ribosomal protein S6 kinase alpha-1, N-terminal kinase domain (RPS6KA1, Homo sapiens, UniProt Q15418)	100
CAMKK2 (Homo sapiens, UniProt Q96RR4)	91
GRK1 (Homo sapiens, UniProt Q15835)	77
TLK2 (Homo sapiens, UniProt Q86UE8)	100
MAP3K5 (Homo sapiens, UniProt Q99683)	100
MAP2K3 (Homo sapiens, UniProt P46734)	77
Ribosomal protein S6 kinase alpha-4, C-terminal kinase domain (RPS6KA4, Homo sapiens, UniProt O75676)	79

Some of these lines once more (series 4):
target	remaining binding [%]
ACVRL1 (Homo sapiens, UniProt P37023)	77
PRKAA1 (Homo sapiens, UniProt Q13131)	99
TEK (Homo sapiens, UniProt Q02763)	85
ACVR1 (Homo sapiens, UniProt Q04771)	85
